# Published values from different studies.
# Protocols differ between the studies behind these lines. “And” joins repeats or separate records; there may be more than shown. ± gives the spread as reported.
# UniProt P08684, sequence (whole entry, looked up): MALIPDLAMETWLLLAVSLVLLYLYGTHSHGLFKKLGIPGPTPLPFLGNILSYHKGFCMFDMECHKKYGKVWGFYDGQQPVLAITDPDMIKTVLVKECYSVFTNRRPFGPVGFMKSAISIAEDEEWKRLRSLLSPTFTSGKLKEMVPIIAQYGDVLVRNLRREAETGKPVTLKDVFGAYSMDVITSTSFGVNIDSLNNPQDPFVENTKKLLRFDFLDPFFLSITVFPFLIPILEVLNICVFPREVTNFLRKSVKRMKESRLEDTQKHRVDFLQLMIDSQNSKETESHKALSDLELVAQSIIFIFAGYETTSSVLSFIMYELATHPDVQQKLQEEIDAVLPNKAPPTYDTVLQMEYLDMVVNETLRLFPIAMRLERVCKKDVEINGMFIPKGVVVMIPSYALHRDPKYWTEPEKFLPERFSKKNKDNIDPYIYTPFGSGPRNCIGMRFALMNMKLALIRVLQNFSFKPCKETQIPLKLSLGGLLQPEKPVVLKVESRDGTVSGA
Structure (SMILES),target or system,assay,test system,conditions,how to read,measurement,result
COc1ccc2c(c1)[C@]13CCCC[C@@H]1[C@H](C2)N(C)CC3,,,"C57BL/6 mice, plasma","oral, 50 µg/g, 300 min",,plasma concentration,0 ng/mL
CC(C)CC(=O)OC[C@H]1O[C@@](C#N)(c2ccc3c(N)ncnn23)[C@H](O)[C@@H]1O,"Cytochrome P450 3A4 (CYP3A4, Homo sapiens, UniProt P08684)",metabolic stability,recombinant enzyme,"1 µM, 30 min",,remaining compound,1.99 ± 0.161%
CCN(CC)C(=O)[C@@H]1C=C2c3cccc4[nH]cc(c34)C[C@H]2N(C)C1,,measured: increased appetite,healthy volunteers,"dose not given, 0 to 12 h","relative to: placebo, direction not given",List of Complaints score,0
O=C(Nc1ccccc1)C1CCN(C(=O)Oc2cccnc2)CC1,,adverse event reporting,healthy women,"oral, 20 mg, 7 days",,subjects with Photophobia adverse event,0%
Oc1ccc(C2(c3ccc(O)cc3)c3ccccc3-c3ccccc32)cc1,"HepG2 spheroids, dissociated",annexin V-FITC/PI flow cytometry,,"1 µM, 96 h",,early apoptotic cells,6.76 ± 5.93%
CC(C)(C)[C@H](NC(=O)C(F)(F)F)C(=O)N1C[C@H]2[C@@H]([C@H]1C(=O)N[C@H](C#N)C[C@@H]1CCNC1=O)C2(C)C,,,human hepatocytes,scaled to liver,,intrinsic clearance,< 8.9 mL/min/kg
CC(C)N(C)N=O,Escherichia coli,"mutagenicity, Ames plate incorporation",WP2 uvrA pKM101,"5000 µg/plate, 3 d, without S9, methanol",,revertant colonies per plate,165 ± 3
O=C(C1CCCCC1)N1CCN(S(=O)(=O)c2cccc3cnccc23)CC1,Caco-2/TC-7 monolayers,permeability,,"20 µM, 120 min",,recovery,87%
O=C1c2c(O)c(=O)ccn2N([C@@H]2c3ccccc3SCc3c2ccc(F)c3F)[C@@H]2COCCN12,,,"BALB/c mice, plasma","oral, 15 mg/kg baloxavir marboxil, 6 h",,plasma concentration,41 ng/mL
Cc1ncc(OC[C@@]2(c3cccc(F)c3)C[C@H]2C(=O)Nc2ccc(F)cn2)c(C)n1,MDCK,,,"1 µM, 90 min, pH 7.4 apical, 7.4 basolateral",,Papp A to B,34.7 ×10⁻⁶ cm/s and 29.4 ×10⁻⁶ cm/s
O=c1ccc2ccccc2o1,NHEK,AhR translocation,,"concentration not given, 24 h",,chance response,0%
CNC(=O)c1c(N(C)N=O)ncn1C,Escherichia coli,plate incorporation,"WP2uvrA pKM101, water","5000 µg/plate, without S9",,revertant colonies per plate,133 ± 5
C[C@]1(CO)Cc2ncn(-c3ccc(C#N)c(Cl)c3)c2C(=O)O1,,,healthy Japanese subjects,"dose not given, single dose, all doses",,subjects with TEAE,16.7%
COc1cc2c(Oc3ccc4[nH]c(C)cc4c3F)ccnc2cc1OCC1(N)CC1,,measured: grade 3 intestinal obstruction,paediatric high-risk refractory sarcoma,8 mg,,incidence of adverse event,0%
COc1ccc(-n2nc(C(C)=O)s/c2=N\N=C(/C)c2ccc(NC(C)=O)cc2)cc1,WI-38,,,"10 µM, 24 (unit not given)",,viability,4.33%
Cc1cc(C(=O)NC(C)(C)COc2cccc3c2C(N)=NS(=O)(=O)N3)cc(C)n1,Salmonella typhimurium,"Ames test, confirmatory",TA1537,3333 µg/plate,relative to: solvent control,revertant ratio,0.7
COc1cccc(-c2n[nH]c(SCc3ccccn3)n2)c1OC,Salmonella typhimurium,"Ames test, preincubation",TA1535,"0.031 mg/plate, with rat liver S9",,revertant colonies per plate,12
CO[C@H]1C[C@@H]2CC[C@@H](C)[C@@](O)(O2)C(=O)C(=O)N2CCCC[C@H]2C(=O)O[C@H]([C@H](C)C[C@@H]2CC[C@@H](OC(=O)NCCOCCOCCOCCOCCOCCOCCOCCOCCC(=O)N3CCc4cc(Cn5nc(-c6ccc7oc(N)nc7c6)c6c(N)ncnc65)ccc4C3)[C@H](OC)C2)C[C@@H](O)[C@H](C)/C=C(\C)[C@@H](O)[C@@H](OC)C(=O)[C@H](C)C[C@H](C)/C=C/C=C/C=C/1C,,phase 1 dose escalation,advanced solid tumour patients,"intravenous, 8 mg weekly, any grade",,AEs causing dose modification,56.3%
CCc1ccc(CC/C=C/c2ccc3c(c2)C(=O)CC3)cc1,,,"Sprague-Dawley rat, male, blood","oral, 30 mg/kg/day, 14 days",,APTT,15.4 s
COCCN(CCOC)N=O,Escherichia coli,"mutagenicity, Ames plate incorporation",WP2 uvrA pKM101,"50 µg/plate, 3 d, without S9, methanol",,revertant colonies per plate,128 ± 10
O=[N+]([O-])c1ccc(N2CCC(NCCC(O)c3ccc(F)c4ccccc34)CC2)c(C(F)(F)F)c1 (stereo not shown),Salmonella typhimurium,"SOS response, SOS/umu test","TA1535/pSK1002, TGA medium","7.63e-06 mg/mL, 4 h, without S9",relative to: untreated,induction factor,0.6
CN1CC[C@@H](c2c(O)cc(O)c3c(=O)cc(-c4ccc(C(F)(F)F)cc4Cl)oc23)[C@@H]1CO,,measured: Diarrhea,AML,"oral, 150 mg, intermittent dosing",,patients with adverse event,25%
OC(CCN1CC=C(c2ccc(F)cc2)CC1)c1ccc(F)c2ccccc12 (stereo not shown),Salmonella typhimurium,"genotoxicity, SOS/umu test",TA1535/pSK1002,"0.004 mg/mL, 4 h, without S9, full range",,induction factor,1.1
CN(N=O)c1ccc(F)cc1,Escherichia coli,"mutagenicity, Ames plate incorporation",WP2 uvrA pKM101,"150 µg/plate, 3 d, without S9, methanol",,revertant colonies per plate,114 ± 15
Cc1cc(C)c(CNC(=O)c2cc(Cl)c3c(c2C)O[C@@](C)([C@H]2CC[C@H](N(C)C)CC2)O3)c(=O)[nH]1,,,"human, relapsed/refractory NHL","concentration not given, all TEAEs, grade 5",,Pneumonia incidence,0%
